Measured values pooled from the literature.
Lines come from different studies, so protocols differ. Values joined by “and” are separate records of one study, mostly repeats; a detail may differ. Numbers after ± are the reported error.
Chain of UniProt P41594 (whole entry, looked up): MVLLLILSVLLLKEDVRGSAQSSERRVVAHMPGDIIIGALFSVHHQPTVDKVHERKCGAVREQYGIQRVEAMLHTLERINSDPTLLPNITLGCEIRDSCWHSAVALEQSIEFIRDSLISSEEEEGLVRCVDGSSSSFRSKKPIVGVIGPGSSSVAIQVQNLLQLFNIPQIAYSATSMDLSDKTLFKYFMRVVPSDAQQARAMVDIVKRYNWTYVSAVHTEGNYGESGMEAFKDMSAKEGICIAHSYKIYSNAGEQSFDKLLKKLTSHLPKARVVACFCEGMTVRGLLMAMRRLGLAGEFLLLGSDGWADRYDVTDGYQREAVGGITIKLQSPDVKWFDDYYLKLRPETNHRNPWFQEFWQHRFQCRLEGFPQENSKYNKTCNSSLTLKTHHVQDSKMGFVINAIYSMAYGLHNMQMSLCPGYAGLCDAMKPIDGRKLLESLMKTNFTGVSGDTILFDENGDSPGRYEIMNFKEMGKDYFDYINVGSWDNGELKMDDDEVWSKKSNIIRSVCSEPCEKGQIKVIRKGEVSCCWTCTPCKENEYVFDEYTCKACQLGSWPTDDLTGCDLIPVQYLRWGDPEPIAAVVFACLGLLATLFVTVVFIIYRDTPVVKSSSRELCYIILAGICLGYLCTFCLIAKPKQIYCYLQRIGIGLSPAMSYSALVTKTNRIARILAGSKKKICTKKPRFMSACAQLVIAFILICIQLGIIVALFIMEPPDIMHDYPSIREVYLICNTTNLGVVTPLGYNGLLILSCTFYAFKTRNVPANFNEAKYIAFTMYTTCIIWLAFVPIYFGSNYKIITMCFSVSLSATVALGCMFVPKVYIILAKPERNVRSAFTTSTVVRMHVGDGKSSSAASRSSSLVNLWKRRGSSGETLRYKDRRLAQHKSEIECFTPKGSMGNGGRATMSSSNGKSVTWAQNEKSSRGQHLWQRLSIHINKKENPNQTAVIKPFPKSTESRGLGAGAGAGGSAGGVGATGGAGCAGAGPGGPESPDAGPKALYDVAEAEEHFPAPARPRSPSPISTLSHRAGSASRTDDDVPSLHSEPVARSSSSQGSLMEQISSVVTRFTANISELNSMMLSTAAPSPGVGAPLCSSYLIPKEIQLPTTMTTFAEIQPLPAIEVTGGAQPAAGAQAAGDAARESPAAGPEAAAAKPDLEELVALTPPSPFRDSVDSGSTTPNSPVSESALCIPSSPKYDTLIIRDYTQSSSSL
Chain of UniProt P08173 (whole entry, looked up): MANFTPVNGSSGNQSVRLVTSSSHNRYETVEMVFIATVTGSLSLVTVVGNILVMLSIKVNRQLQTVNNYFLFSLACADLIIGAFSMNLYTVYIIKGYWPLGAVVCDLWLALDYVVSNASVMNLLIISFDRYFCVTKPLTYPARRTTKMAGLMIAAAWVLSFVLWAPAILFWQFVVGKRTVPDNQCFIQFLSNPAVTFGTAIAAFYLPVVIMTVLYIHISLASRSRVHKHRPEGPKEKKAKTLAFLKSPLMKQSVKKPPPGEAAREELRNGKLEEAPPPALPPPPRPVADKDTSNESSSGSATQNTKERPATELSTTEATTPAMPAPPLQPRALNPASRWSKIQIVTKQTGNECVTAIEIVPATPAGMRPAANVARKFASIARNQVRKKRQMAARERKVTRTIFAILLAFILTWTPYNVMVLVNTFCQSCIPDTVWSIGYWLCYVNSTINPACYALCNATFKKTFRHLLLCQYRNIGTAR
Chain of UniProt P21453 (whole entry, looked up): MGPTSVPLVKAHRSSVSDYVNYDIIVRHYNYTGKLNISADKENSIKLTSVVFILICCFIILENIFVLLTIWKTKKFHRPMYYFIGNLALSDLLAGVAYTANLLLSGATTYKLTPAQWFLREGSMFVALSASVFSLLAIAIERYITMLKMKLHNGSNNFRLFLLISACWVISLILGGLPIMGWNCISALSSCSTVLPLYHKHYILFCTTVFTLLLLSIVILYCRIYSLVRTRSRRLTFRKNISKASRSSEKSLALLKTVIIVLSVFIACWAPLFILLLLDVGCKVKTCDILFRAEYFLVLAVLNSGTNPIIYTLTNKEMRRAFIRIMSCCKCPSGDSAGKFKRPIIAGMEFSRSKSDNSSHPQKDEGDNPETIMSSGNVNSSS

| Compound | tested on | test | system | setting | quantity | result |
| --- | --- | --- | --- | --- | --- | --- |
| CO[C@@H]1[C@H](O)[C@@H](COP(=O)(O)OP(=O)([O-])C(Cl)(Cl)P(=O)(O)OP(=O)(O)OC[C@H]2O[C@@H](n3cnc4c(=O)[nH]c(N)nc43)[C@H](O)[C@@H]2O)O[C@H]1n1c[n+](C)c2c(O)nc(N)nc21 |  | cap-dependent translation, inhibitor | rabbit reticulocyte lysate | 60 min, 30 °C, no preincubation | IC50 | 950 ± 100 nM |
| C[n+]1cn(C2OC(COP(=O)([O-])OP(=O)(O)OP(=O)(O)OCC3OC(n4cnc5c(=O)[nH]c(N)nc54)C(O)C3O)C(O)C2O)c2nc(NCc3cc(-c4ccccc4)no3)[nH]c(=O)c21 (stereo not shown) |  | cap-dependent translation, inhibitor | rabbit reticulocyte lysate | with: ARCA-capped luciferase mRNA | IC50 | 570 ± 60 nM |
| CC[C@@](C)(NC)C(=O)NC(C)(C)C(=O)NC(C)(C)C(=O)NC(C)(C)C(=O)NCC(=O)NC(C)(C)C(=O)N1CCC[C@@H]1C(=O)N[C@@H](Cc1c[nH]c2ccccc12)C(=O)NC(C)(C)C(=O)N1C[C@H](O)C[C@@H]1C(=O)N[C@@H](C)C(=O)N[C@](C)(CC)C(=O)NCCCC(=O)N[C@@H](CC(C)C)C(=O)N[C@](C)(CC)C(=O)NC(C)(C)C(=O)N[C@](C)(CC)C(=O)N[C@H](CO)Cc1ccccc1 |  | binding, ITC | 10 to 30% methanol | 2 °C, with: POPG | Kd | 439 nM |
| Cc1csc(CCCNc2nc3c(c(=O)[nH]2)[n+](C)cn3C2OC(COP(=O)(O)OP(=O)([O-])OP(=O)(O)OCC3OC(n4cnc5c(=O)[nH]c(N)nc54)C(O)C3O)C(O)C2O)n1 (stereo not shown) |  | cap-dependent translation, inhibitor | rabbit reticulocyte lysate | with: ARCA-capped luciferase mRNA | IC50 | 1870 ± 80 nM |
| CO[C@@H]1[C@H](O)[C@@H](COP(=O)(O)OP(=O)([O-])C(F)(F)P(=O)(O)OP(=O)(O)OC[C@H]2O[C@@H](n3cnc4c(=O)[nH]c(N)nc43)[C@H](O)[C@@H]2O)O[C@H]1n1c[n+](C)c2c(O)nc(N)nc21 |  | cap-dependent translation, inhibitor | rabbit reticulocyte lysate | preincubated 60 min in lysate | IC50 | 3590 ± 280 nM |
| CCc1nc(-c2ccc(-c3ccc(CCC(N)(CO)COP(=O)(O)O)cc3)cc2)co1 (stereo not shown) | S1PR1 (Homo sapiens, UniProt P21453) | inositol phosphate, agonist, TR-FRET |  |  | EC50 | 2.2 nM |
| C[n+]1cn(C2OC(COP(=O)(O)OP(=O)([O-])C(F)(F)P(=O)(O)OP(=O)(O)OCC3OC(n4cnc5c(=O)[nH]c(N)nc54)C(O)C3O)C(O)C2O)c2nc(N)nc(O)c21 (stereo not shown) |  | cap-dependent translation, inhibitor | rabbit reticulocyte lysate | preincubated 60 min in lysate | IC50 | 4990 ± 410 nM |
| C[n+]1cn(C2OC(COP(=O)(O)OP(=O)([O-])OP(=O)(O)OCC3OC(n4cnc5c(=O)[nH]c(N)nc54)C(O)C3O)C(O)C2O)c2nc(NCc3ccccc3)[nH]c(=O)c21 (stereo not shown) |  | cap-dependent translation, inhibitor | rabbit reticulocyte lysate | with: ARCA-capped luciferase mRNA | IC50 | 610 ± 40 nM |
| Cc1ccc(Oc2cc(C(=O)NCc3ccccn3)nc3ccsc23)cn1 | GRM5 (Homo sapiens, UniProt P41594) | calcium flux, positive allosteric modulator |  | with: glutamate EC20 | EC50 | 2800 nM and 2830 nM |
| CCCCCCOc1ccc(C(=O)OCCN2CC=CCC2)cc1 | CHRM4 (Homo sapiens, UniProt P08173) | inositol phosphate accumulation, antagonist, Schild analysis | CHO co-expressing G15 | with: carbachol | Kb | 275 nM |

Repeated from above:
| Compound | tested on | test | system | setting | quantity | result |
| --- | --- | --- | --- | --- | --- | --- |
| CO[C@@H]1[C@H](O)[C@@H](COP(=O)(O)OP(=O)([O-])C(Cl)(Cl)P(=O)(O)OP(=O)(O)OC[C@H]2O[C@@H](n3cnc4c(=O)[nH]c(N)nc43)[C@H](O)[C@@H]2O)O[C@H]1n1c[n+](C)c2c(O)nc(N)nc21 |  | cap-dependent translation, inhibitor | rabbit reticulocyte lysate | 60 min, 30 °C, no preincubation | IC50 | 950 ± 100 nM |
